Measured values gathered from unrelated publications.
Each line is one published result; not all experiments were run side by side. “And” joins repeats or separate records; there may be more than shown. Numbers after ± are the reported error.

| Compound | test | test system | conditions | how to read | quantity | value |
| --- | --- | --- | --- | --- | --- | --- |
| CC(C)[C@@H]1NC(=O)CNC(=O)[C@H](CC(N)=O)NC(=O)[C@H](CCCNC(=N)N)NC(=O)[C@H](Cc2ccc(O)cc2)NC(=O)[C@H](C(C)C)NC(=O)[C@@H](NC(=O)[C@@H](NC(=O)[C@H](CC(N)=O)NC(=O)[C@H](Cc2c[nH]c3ccccc23)NC(=O)[C@H](C)NC(=O)[C@H](Cc2ccccc2)NC(=O)CN)C(C)C)CSSC[C@@H](C(=O)N[C@@H](Cc2cnc[nH]2)C(=O)N[C@@H](CCCNC(=N)N)C(=O)N[C@@H](CCCNC(=N)N)C(=O)N[C@@H](C)C(=O)N[C@@H](CC(N)=O)C(N)=O)NC(=O)[C@H](C(C)C)NC(=O)[C@H](CCCNC(=N)N)NC1=O | HPLC | mouse mammary gland homogenate | 2560 µM, 4.00 h, 37 °C, 50 mg/mL tissue | – | remaining peptide | 57.4% and 62% and 62.8% |
| COc1cc(C(=O)NC2CCN(C)CC2)c(F)cc1Nc1ncc(C(F)(F)F)c(Oc2cccc3c2C(=O)N(C)C3)n1 | – | human patients, plasma | oral, 10 mg once daily repeated, geometric mean | – | mean residence time at steady state | 36.4 h |
| CN1CCN(S(=O)(=O)c2cc([N+](=O)[O-])ccc2N(CCOS(C)(=O)=O)CCOS(C)(=O)=O)CC1 | – | NSG mice female, plasma | intraperitoneal, 10 mg/kg, 1 h | – | concentration | 0.19 µM |
| CO[C@H]1C[C@@H]2CC[C@@H](C)[C@@](O)(O2)C(=O)C(=O)N2CCCC[C@H]2C(=O)O[C@H]([C@H](C)C[C@@H]2CC[C@@H](OC(=O)NCCOCCOCCOCCOCCOCCOCCOCCOCCC(=O)N3CCc4cc(Cn5nc(-c6ccc7oc(N)nc7c6)c6c(N)ncnc65)ccc4C3)[C@H](OC)C2)C[C@@H](O)[C@H](C)/C=C(\C)[C@@H](O)[C@@H](OC)C(=O)[C@H](C)C[C@H](C)/C=C/C=C/C=C/1C | – | patients with advanced solid tumours | intravenous, 6 mg weekly, grade 3 or higher | – | dysgeusia incidence | 0% |
| CN1CC[C@@H](c2c(O)cc(O)c3c(=O)cc(-c4ccc(C(F)(F)F)cc4Cl)oc23)[C@@H]1CO | measured: Sepsis | B-cell malignancies or AML | oral, 50 mg, continuous dosing | – | patients with adverse event | 0% |
| Clc1ccc(-c2ccccc2)cc1 | – | Sprague-Dawley rats, female, serum | inhalation, 23 µg/rat, 4 h after exposure | – | gamma-glutamyltransferase | 0.3 ± 0.6 U/L |
| O=C(O)CCCOc1ccc(F)cc1-c1cc(-c2ccccc2C(F)(F)F)n(-c2ccccc2)n1 | – | female Crl:CD(SD) rats | intravenous, 25 µg/kg, 14 d | – | MCV | 54.3 fL and 54.2 fL and 54 fL and 54.1 fL and 55.4 fL |
| O=c1nc(NO)ccn1[C@@H]1O[C@H](CO)[C@@H](O)[C@H]1O | – | rat amniotic fluid dialysate | 1000 ng/mL, high concentration, three cycles, added: molnupiravir 250 ng/mL | – | freeze-thaw stability | 106 ± 1.62% |
| O=C1Nc2cc3[nH]nc(-c4ccncc4)c3cc2CN1Cc1ccccc1 | CTCAE v4.03 | advanced solid tumour patients | intravenous, 1.8 mg/kg, schedules 1/2 | – | patients with dyspnoea | 0% |
| Cn1nc(NS(C)(=O)=O)c2c(Cl)ccc(-n3c([C@H](Cc4cc(F)cc(F)c4)NC(=O)Cn4nc(C(F)F)c5c4C(F)(F)[C@@H]4C[C@H]54)nc4nc(OCCC(F)(F)F)ccc4c3=O)c21 | measured: blood triglycerides increased | human | 200 mg, powder in bottle | – | drug-related adverse events | 17% |
| CC(=O)NCC(=O)NCC(=O)N[C@H](C(=O)N[C@@H](Cc1ccc(O)cc1)C(=O)N[C@@H](CO)C(=O)N[C@H]1CSSC[C@@H](C(=O)N[C@@H](CCCNC(=N)N)C(=O)N2CCC[C@H]2C(=O)N[C@@H](CCC(N)=O)C(=O)N[C@@H](CCCNC(=N)N)C(=O)NCC(=O)NCCC(=O)N[C@@H](CCCCNC(=O)CN(CC(=O)NCCCC[C@H](NC(=O)CCNC(=O)CNC(=O)[C@H](CCCNC(=N)N)NC(=O)[C@H](CCC(N)=O)NC(=O)[C@@H]2CCCN2C(=O)[C@H](CCCNC(=N)N)NC(=O)[C@@H]2CSSC[C@H](NC(=O)[C@H](CO)NC(=O)[C@H](Cc3ccc(O)cc3)NC(=O)[C@@H](NC(=O)CNC(=O)CNC(C)=O)[C@@H](C)O)C(=O)N[C@@H](Cc3c[nH]cn3)C(=O)N[C@@H](Cc3ccccc3)C(=O)NCC(=O)N[C@@H](C)C(=O)N[C@@H](CC(C)C)C(=O)N[C@@H]([C@@H](C)O)C(=O)N[C@@H](Cc3c[nH]c4ccccc34)C(=O)N[C@@H](C(C)C)C(=O)N2)C(N)=O)C(=O)CCN)C(N)=O)NC(=O)[C@H](C(C)C)NC(=O)[C@H](Cc2c[nH]c3ccccc23)NC(=O)[C@H]([C@@H](C)O)NC(=O)[C@H](CC(C)C)NC(=O)[C@H](C)NC(=O)CNC(=O)[C@H](Cc2ccccc2)NC(=O)[C@H](Cc2c[nH]cn2)NC1=O)[C@@H](C)O | MSD immunoassay | BALB/c mice, healthy female, serum | subcutaneous, 0.08 mg/kg, 24 h, LLOQ 2.0 ng/mL | – | serum concentration | not detected |
| COc1ncccc1-c1cnn2ccc(N3CCN(C(=O)OC(C)C)CC3)nc12 | – | mouse, open field test, plasma | oral, 30 mg/kg, 60 min | – | drug concentration | 12 µM |
| O=C(Nc1cccc(B(O)O)c1)c1cccc(OCc2ccccc2)c1 | PAMPA | pre-coated trilayer membrane | 200 µM, 5 h, pH 7.4, acceptor plate, PBS | – | acceptor concentration | 0.35 ± 0.07 µM |
| CC(C)(O)c1cc(Nc2cc(Oc3cn(C4CC4)nc3C3CCOCC3)ccn2)ccn1 | Diarrhea | advanced cancer patients, dose escalation | oral, dose not given, 3 weeks on/1 off, all causality grade ≥3 | – | treatment-emergent adverse events | 0% |
| Cn1cncc1-c1c(F)cncc1NC(=O)c1c(N)nn2cc(F)cnc12 | – | human patients | oral, 180 mg once daily | – | grade ≥3 hyponatraemia incidence | 0% |
| CCN1CCN(Cc2ccc(Nc3ncc(F)c(-c4cc(F)c5nc6n(c5c4)[C@H](C)CCC6)n3)nc2)CC1 | – | advanced solid tumour patients | dose not given, Phase Ia monotherapy | – | Proteinuria incidence, grade ≥3 | 0% |
| COc1ccc(C[C@@H]2NC(=O)[C@H]([C@@H](C)O)NC(=O)[C@@H]3[C@@H]4CCN3C(=O)[C@@H]3Cc5cn(c6ccc(F)cc56)CCCCCCN(Cc5ccc(cc5)CCNC(=O)[C@]5(C)CCCN5C2=O)C(=O)CCC(=O)N[C@@H](C)C(=O)N[C@H](CNC(=O)CCCCC[N+](C)(C)C)C(=O)N[C@@H](Cc2cccc(c2)CNC(=O)CO4)C(=O)N3)cc1 | measured: Headache | humans | concentration not given, Study-001 | – | participants with adverse event | 27.5% |
| COc1cc2c(Oc3ccc4[nH]c(C)cc4c3F)ccnc2cc1OCC1(N)CC1 | – | paediatric recurrent refractory sarcoma | 12 mg | – | Leukopenia incidence | 36.4% |

| Compound | test | test system | conditions | how to read | quantity | value |
| --- | --- | --- | --- | --- | --- | --- |
| C[C@@H]1OC(=O)NN=C1c1ccc(-c2ccc(F)cc2)c(C(F)(F)F)c1 | phase I trial, measured: Presyncope all grades | human patients | 5 mg loading then 0.25 mg daily | – | patients with adverse event | 0% |
| COc1ccnc(C(=O)N[C@H]2COC(=O)[C@H](Cc3ccccc3)[C@@H](OC(=O)C(C)C)[C@H](C)OC2=O)c1OCOC(=O)C(C)C | soil adsorption | tested soils | geometric mean | – | Freundlich coefficient KF | 108 mL/g |
| O=[N+]([O-])NC1=NCCN1Cc1ccc(Cl)nc1 | – | whole cow milk | 2000 nM nominal | – | dose fraction in milk fat | 2.55% |
| O=C(c1ccc(F)c(F)c1Nc1ccc(I)cc1F)N1CC(O)([C@@H]2CCCCN2)C1 | – | patients aged sample A to sample B years | oral, dose not given | – | SAE leading treatment withdrawal | 7% |
| C[C@]1(CO)Cc2ncn(-c3ccc(C#N)c(Cl)c3)c2C(=O)O1 | – | human, plasma | 80 mg once daily, fasted | – | half-life at steady state | 5.5 h |
| CCCCCCCCCCC[C@H](OC1OC[C@H](O)[C@@H](O)[C@@H]1O)[C@H](O)[C@H](O)C[C@@H]1CC(=O)N[C@H](CO)C(=O)N[C@H]([C@H](O)c2ccc(O)cc2)C(=O)N[C@H](CCN)C(=O)NCC(=O)N[C@@H](CC(N)=O)C(=O)N[C@@H](CO)C(=O)N[C@@H]([C@H](O)C(N)=O)C(=O)N1 (stereo partly drawn) | LC-MS/MS | rabbit plasma, sodium citrate | 200 ng/mL, room temperature | – | measured concentration, benchtop | 151 ng/mL |
| C[C@]1(O)C[C@@](N)(c2ccc(-c3nc4n(c3-c3ccccc3)COc3ccncc3-4)cc2)C1 | – | human, advanced or metastatic solid tumours | 20 mg once daily, phase I dose escalation | – | patients with Rash TEAE | 66.7% |
| CCN1[C@@H](C(=O)NC23CCC(C(=O)O)(CC2)CC3)[C@H](c2cccc(Cl)c2F)[C@]2(C(=O)Nc3cc(Cl)ccc32)C12CCCCC2 | – | patients with advanced solid tumours | oral, 200 mg | – | grade ≥3 febrile neutropenia incidence | 50% |
| C[C@H](/C=C/[C@H](C)C(C)(C)O)[C@H]1CC[C@H]2/C(=C/C=C3C[C@@H](O)C[C@H](O)C3)CCC[C@]12C | – | patients with refractory advanced malignancies | MTD not assessed, added: gemcitabine weekly | – | highest safe dose | 7 µg/kg |
| NCCCC[C@@H]1NC(=O)[C@@H](Cc2c[nH]c3ccccc23)NC(=O)[C@H](c2ccccc2)NC(=O)[C@@H]2C[C@@H](OC(=O)NCCN)CN2C(=O)[C@H](Cc2ccccc2)NC(=O)[C@H](Cc2ccc(OCc3ccccc3)cc2)NC1=O | – | healthy human volunteers | 600 µg twice daily | – | subjects with injection-site erythema | 73% |
| COc1cccc(Oc2ccccc2NC(=O)CNC(=O)c2cccc3ccccc23)c1 | – | esterase-deficient SCID mice, male, blood | oral, 40 mg/kg/day, 14 days, toxicity study | reference: white cells | monocytes | 0% and 5% |
| Cc1ccc(F)c2cc(C(=O)N[C@@H]3CCC[C@H](N4CC[C@H](N(C)S(C)(=O)=O)C4)C3)[nH]c12 | – | CD1 mouse, plasma | oral, 30 mg/kg, 0.25 h | – | plasma concentration | 523 ng/mL |
| CC(=O)c1c(C)c2cnc(Nc3ccc(C4CCN(CCS(C)(=O)=O)CC4)cn3)nc2n(C2CCCC2)c1=O | – | human, plasma | oral, 75 mg twice daily, day 21, multiple dose, added: letrozole | – | Tmax | 1.56 h |
| O=C(Nc1ccc(Cl)cc1)Nc1ccc(Cl)c(Cl)c1 | ultrafiltration | cow milk whey | 20 nM nominal in whole milk | – | dose fraction in permeate | 2.21% |
| CCCCCCCCCCCCCCCC(=O)N[C@@H](CCC(=O)NCCCC[C@H](NC(=O)[C@H](CC(=O)O)NC(=O)[C@H](CO)NC(=O)[C@@H](NC(=O)[C@H](Cc1ccccc1)NC(=O)[C@@H](NC(=O)CNC(=O)[C@H](CCC(N)=O)NC(=O)[C@H](CO)NC(=O)[C@@H](N)Cc1c[nH]cn1)[C@@H](C)O)[C@@H](C)O)C(=O)N[C@@H](CO)C(=O)N[C@@H](CCC(=O)O)C(=O)N[C@@H](Cc1ccc(O)cc1)C(=O)N[C@@H](CC(C)C)C(=O)N[C@@H](CC(=O)O)C(=O)N[C@@H](CO)C(=O)N[C@@H](CCC(=O)O)C(=O)N[C@@H](CCCNC(=N)N)C(=O)N[C@@H](C)C(=O)N[C@@H](CCCNC(=N)N)C(=O)N[C@@H](CC(=O)O)C(=O)N[C@@H](Cc1ccccc1)C(=O)N[C@H](C(=O)N[C@@H](C)C(=O)N[C@@H](Cc1c[nH]c2ccccc12)C(=O)N[C@@H](CC(C)C)C(=O)N[C@@H](CCC(=O)O)C(=O)N[C@@H](C)C(=O)NCC(=O)NCC(=O)O)C(C)C)C(=O)O | measured: Diarrhoea | humans all renal groups | subcutaneous, 100 µg single dose | – | treatment-related adverse events | 2.7% |
| C[C@@H](NC(=O)N1C(=O)[C@H](Cc2ccnc(N)c2)[C@H]1C(=O)O)C1CCCCC1 | – | healthy adult Chinese volunteers | continuous intravenous infusion, 1.5 mg/kg/h, 5-day infusion, CTCAE 5.0 grading | – | incidence of hypokalemia | 0% |
| O=C(Nc1ccccc1)C1CCN(C(=O)Oc2cccnc2)CC1 | adverse event reporting | healthy women | oral, 20 mg, 7 days | – | subjects with eye disorders | 0% |
| CCc1ccc(CC/C=C/c2ccc3c(c2)C(=O)CC3)cc1 | – | Sprague-Dawley rat, female, serum | oral, 120 mg/kg/day, 14 days | – | creatinine | 24 µM |

For quick reference, copied from above:
| Compound | test | test system | conditions | how to read | quantity | value |
| --- | --- | --- | --- | --- | --- | --- |
| CC(C)(O)c1cc(Nc2cc(Oc3cn(C4CC4)nc3C3CCOCC3)ccn2)ccn1 | Diarrhea | advanced cancer patients, dose escalation | oral, dose not given, 3 weeks on/1 off, all causality grade ≥3 | – | treatment-emergent adverse events | 0% |
| Cn1cncc1-c1c(F)cncc1NC(=O)c1c(N)nn2cc(F)cnc12 | – | human patients | oral, 180 mg once daily | – | grade ≥3 hyponatraemia incidence | 0% |
| CCN1CCN(Cc2ccc(Nc3ncc(F)c(-c4cc(F)c5nc6n(c5c4)[C@H](C)CCC6)n3)nc2)CC1 | – | advanced solid tumour patients | dose not given, Phase Ia monotherapy | – | Proteinuria incidence, grade ≥3 | 0% |
| COc1ccc(C[C@@H]2NC(=O)[C@H]([C@@H](C)O)NC(=O)[C@@H]3[C@@H]4CCN3C(=O)[C@@H]3Cc5cn(c6ccc(F)cc56)CCCCCCN(Cc5ccc(cc5)CCNC(=O)[C@]5(C)CCCN5C2=O)C(=O)CCC(=O)N[C@@H](C)C(=O)N[C@H](CNC(=O)CCCCC[N+](C)(C)C)C(=O)N[C@@H](Cc2cccc(c2)CNC(=O)CO4)C(=O)N3)cc1 | measured: Headache | humans | concentration not given, Study-001 | – | participants with adverse event | 27.5% |
